Published values from different studies.
Numbered parts are unrelated; each lists some results of a single study. Values joined by “and” are separate records of one study, mostly repeats; a detail may differ.
Sequence of UniProt P42336 (whole entry, unmodified, looked up): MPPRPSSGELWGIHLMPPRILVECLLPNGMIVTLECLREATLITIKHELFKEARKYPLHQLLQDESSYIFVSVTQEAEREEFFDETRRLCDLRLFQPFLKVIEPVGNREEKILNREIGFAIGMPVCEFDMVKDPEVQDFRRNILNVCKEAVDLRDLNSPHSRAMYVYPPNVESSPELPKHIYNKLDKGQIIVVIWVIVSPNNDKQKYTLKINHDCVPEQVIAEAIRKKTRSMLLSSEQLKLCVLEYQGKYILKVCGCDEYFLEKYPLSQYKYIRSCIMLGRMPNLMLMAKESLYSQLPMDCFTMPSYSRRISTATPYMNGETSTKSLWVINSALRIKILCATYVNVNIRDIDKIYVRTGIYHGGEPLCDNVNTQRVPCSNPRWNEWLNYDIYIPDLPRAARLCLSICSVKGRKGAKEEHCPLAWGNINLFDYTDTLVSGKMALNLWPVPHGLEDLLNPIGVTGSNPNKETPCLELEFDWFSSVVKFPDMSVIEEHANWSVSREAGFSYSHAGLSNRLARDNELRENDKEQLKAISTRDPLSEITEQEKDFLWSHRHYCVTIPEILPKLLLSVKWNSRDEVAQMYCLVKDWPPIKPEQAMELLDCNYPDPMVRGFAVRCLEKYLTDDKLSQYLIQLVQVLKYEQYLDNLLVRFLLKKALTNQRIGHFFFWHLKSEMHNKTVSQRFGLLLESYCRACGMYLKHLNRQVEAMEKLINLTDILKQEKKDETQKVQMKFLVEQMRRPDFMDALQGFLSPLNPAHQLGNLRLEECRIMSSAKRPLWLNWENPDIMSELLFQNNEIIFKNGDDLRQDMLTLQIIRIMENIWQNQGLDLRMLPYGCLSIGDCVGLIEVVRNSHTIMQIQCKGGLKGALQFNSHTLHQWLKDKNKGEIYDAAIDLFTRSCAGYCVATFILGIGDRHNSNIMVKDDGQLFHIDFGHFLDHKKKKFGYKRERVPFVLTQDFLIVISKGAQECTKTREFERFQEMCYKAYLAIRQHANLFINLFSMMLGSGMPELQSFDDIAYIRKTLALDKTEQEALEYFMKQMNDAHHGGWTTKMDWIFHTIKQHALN
Sequence of UniProt Q12851 (whole entry, looked up): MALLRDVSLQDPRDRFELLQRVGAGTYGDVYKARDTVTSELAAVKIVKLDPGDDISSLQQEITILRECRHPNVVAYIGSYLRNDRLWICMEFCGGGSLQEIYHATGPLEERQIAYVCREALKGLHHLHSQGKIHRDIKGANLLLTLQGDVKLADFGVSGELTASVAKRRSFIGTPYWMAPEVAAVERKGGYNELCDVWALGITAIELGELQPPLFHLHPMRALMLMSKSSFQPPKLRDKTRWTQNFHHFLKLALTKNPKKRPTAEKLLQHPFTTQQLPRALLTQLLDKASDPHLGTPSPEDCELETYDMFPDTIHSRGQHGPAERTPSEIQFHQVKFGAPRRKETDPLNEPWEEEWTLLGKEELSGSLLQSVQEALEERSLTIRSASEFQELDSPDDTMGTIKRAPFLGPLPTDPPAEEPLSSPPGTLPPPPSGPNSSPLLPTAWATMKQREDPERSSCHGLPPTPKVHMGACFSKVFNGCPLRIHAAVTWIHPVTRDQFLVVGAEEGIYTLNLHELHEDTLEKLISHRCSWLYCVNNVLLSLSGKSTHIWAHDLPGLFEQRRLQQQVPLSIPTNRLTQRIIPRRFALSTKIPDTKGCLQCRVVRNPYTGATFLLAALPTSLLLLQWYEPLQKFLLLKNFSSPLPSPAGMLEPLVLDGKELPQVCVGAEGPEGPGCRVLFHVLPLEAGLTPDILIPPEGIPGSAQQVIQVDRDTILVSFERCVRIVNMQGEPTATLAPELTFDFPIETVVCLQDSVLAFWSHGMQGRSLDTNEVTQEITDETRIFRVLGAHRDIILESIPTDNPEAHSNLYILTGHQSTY
Sequence of UniProt Q92630 (whole entry, looked up): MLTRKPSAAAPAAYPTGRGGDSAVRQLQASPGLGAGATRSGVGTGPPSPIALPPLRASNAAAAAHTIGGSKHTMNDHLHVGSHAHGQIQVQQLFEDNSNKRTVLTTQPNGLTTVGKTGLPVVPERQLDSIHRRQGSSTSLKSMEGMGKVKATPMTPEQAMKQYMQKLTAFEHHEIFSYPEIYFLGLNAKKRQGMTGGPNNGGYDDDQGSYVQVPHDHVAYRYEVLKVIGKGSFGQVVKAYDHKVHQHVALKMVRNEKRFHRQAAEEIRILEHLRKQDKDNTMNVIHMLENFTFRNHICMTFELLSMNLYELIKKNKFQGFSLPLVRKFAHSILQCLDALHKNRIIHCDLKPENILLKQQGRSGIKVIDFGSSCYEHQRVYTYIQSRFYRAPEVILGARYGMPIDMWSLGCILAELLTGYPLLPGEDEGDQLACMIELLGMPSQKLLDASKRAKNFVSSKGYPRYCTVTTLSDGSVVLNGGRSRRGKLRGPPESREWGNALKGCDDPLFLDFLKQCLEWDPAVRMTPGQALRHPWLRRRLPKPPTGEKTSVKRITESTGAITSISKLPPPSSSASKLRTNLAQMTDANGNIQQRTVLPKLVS
Sequence of UniProt Q86Z02 (whole entry, looked up): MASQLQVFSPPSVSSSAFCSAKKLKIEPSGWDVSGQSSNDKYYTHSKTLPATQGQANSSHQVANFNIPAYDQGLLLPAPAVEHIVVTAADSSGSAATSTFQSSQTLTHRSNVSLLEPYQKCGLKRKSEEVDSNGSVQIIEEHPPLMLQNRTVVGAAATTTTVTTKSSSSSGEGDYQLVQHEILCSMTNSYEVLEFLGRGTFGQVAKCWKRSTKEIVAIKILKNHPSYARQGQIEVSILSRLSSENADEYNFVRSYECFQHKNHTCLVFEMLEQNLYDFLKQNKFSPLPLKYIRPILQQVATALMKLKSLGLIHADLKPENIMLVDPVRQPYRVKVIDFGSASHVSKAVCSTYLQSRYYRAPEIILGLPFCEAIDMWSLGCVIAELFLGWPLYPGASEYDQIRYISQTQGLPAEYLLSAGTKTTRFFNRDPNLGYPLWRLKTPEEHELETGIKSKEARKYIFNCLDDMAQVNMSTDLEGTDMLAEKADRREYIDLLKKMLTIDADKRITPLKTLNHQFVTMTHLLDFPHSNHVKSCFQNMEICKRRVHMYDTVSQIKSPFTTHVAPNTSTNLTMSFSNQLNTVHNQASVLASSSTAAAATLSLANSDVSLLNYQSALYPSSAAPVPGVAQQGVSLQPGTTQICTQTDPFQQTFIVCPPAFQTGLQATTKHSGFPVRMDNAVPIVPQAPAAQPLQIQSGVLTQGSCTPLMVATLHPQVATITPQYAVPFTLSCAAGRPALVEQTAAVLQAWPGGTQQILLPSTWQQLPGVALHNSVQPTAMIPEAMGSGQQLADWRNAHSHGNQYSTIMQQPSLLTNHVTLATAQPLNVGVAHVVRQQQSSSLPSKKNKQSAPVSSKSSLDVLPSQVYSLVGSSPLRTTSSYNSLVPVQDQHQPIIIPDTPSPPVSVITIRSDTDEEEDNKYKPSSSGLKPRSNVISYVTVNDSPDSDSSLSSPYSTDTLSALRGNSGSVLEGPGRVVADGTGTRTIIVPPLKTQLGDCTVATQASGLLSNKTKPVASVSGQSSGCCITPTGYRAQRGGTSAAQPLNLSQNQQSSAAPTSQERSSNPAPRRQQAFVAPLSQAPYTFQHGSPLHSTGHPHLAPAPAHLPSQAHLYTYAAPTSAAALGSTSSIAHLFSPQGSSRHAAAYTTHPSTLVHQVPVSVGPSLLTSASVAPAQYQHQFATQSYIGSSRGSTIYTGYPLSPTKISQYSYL
Sequence of UniProt Q14289 (whole entry, looked up): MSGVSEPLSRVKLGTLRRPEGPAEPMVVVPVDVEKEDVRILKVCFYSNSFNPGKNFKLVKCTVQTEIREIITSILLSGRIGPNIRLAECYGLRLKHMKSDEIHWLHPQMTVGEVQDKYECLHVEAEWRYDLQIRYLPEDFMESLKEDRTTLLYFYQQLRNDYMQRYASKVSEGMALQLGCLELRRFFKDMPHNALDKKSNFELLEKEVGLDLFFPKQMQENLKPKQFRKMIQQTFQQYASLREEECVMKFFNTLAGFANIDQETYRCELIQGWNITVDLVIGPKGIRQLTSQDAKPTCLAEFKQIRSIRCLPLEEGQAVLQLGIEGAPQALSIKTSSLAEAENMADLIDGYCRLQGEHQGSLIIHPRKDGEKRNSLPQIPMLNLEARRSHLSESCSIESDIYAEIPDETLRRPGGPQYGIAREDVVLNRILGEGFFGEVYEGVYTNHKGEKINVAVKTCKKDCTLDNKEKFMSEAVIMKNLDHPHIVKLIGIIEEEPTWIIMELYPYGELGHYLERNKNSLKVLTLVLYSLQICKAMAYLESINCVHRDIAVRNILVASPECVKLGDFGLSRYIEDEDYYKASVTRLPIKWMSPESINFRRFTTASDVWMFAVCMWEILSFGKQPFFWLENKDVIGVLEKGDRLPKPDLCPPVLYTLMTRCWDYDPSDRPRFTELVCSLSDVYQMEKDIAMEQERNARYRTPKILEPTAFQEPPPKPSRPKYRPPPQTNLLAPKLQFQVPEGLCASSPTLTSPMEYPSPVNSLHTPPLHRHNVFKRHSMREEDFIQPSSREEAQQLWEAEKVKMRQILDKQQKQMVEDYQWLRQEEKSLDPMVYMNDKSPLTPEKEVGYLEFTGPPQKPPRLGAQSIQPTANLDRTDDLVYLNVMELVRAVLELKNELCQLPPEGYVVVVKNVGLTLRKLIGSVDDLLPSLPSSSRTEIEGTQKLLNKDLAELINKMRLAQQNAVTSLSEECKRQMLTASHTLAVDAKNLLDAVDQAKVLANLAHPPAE

Set 1 — method: aptamer microarray, sandwich; molecule type: DNA with 2'F-ANA; sample: in vitro; concentration: 200 nM; with: Cy3 exosite-II aptamer, 400 nM; direction: higher = stronger binding; sequence: GGTTGGTGTGGTTGG
Target: Prothrombin, mature alpha-thrombin (F2, Homo sapiens, UniProt P00734)
Setting: whole 15-mer aptamer, many near background
`2'F-ANA at 3 4 6 7 8 9 12 15` — result for “mean fluorescence intensity”: 879 a.u.
`2'F-ANA at 1 2 4 6 11 12 15`: “mean fluorescence intensity” 190 a.u.
`2'F-ANA at 2 4 6 7 8 9 12 13 15`: “mean fluorescence intensity” 334 a.u.
`2'F-ANA at 1 2 5 7 9 12 13 14 15` — result for “mean fluorescence intensity”: 44.3 a.u.
Under “mean fluorescence intensity”, `2'F-ANA at 1 2 3 4 5 7 9 10 12 14` is recorded as 46.9 a.u.
For `2'F-ANA at 2 3 5 6 7 8 9 11 12 13 14`, “mean fluorescence intensity” read 52.6 a.u.
`2'F-ANA at 5 10 11 15`: “mean fluorescence intensity” 47.1 a.u.
`2'F-ANA at 3 5 6 8 10 11 12` — result for “mean fluorescence intensity”: 60.2 a.u.

Set 2 — method: competition protein-binding microarray; molecule type: double-stranded DNA, one strand shown; sample: in vitro; concentration: 2 µM; with: Pho4 competitor, 0.05 µM; direction: higher = stronger binding
Target: Centromere-binding protein 1, full length, His-tagged (CBF1, Saccharomyces cerevisiae, UniProt P17106, residues 1-351)
Sequence of UniProt P17106 (whole entry, looked up): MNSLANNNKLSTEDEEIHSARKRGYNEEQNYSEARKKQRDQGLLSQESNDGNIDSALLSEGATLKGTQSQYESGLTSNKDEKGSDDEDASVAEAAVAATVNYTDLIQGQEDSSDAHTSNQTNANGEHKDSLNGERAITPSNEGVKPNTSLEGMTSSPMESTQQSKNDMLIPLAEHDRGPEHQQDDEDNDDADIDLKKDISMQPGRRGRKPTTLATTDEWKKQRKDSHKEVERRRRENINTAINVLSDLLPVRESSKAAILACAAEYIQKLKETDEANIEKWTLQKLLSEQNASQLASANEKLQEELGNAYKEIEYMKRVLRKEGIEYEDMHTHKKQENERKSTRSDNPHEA
Setting: whole 60-bp probe, lowest competitor level
The fluorescence intensity of `CTAAACTACGCCTGGCACGTGGGTAATGAAGTATACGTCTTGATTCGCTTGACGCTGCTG` is reported as 1170 a.u.
With `GCCTCCGTCTCTTCCACTGTGCAGGGCGCTAGCTCAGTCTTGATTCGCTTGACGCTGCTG` the fluorescence intensity was 42.7 a.u.
`CGTCCTAGTGATTTTCACGTGTGCTCCATGAGGAAGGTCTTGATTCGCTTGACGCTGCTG` has a fluorescence intensity of 718 a.u.
With `GAGAATGCCTTTGTCCATGTGATAAACCGTCCAAAAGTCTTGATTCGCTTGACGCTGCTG` the fluorescence intensity was 303 a.u.
For `AGGGCAGCGCGCGACCGCGTGTCCTTTCACAGCGCAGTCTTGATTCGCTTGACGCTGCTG`, the fluorescence intensity was 52.4 a.u.
For `ATCTTCTTTCACAATCACGTGAAACTTCCTCGATATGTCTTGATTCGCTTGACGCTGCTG`, the fluorescence intensity was 3310 a.u.
For `CCGTCTACAACTCGGCACGCAAGTAGTCCGCCTAGCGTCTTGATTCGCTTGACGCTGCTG`, the fluorescence intensity was 66.1 a.u.
The fluorescence intensity of `GTCTTGTCTCATTGTCACATGACTTTCCCCACTTCAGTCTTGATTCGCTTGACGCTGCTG` is reported as 2620 a.u.

Set 3 — effect on: cell-free assay; method: competition with immobilised ligand; concentration: 1 µM
SMILES: CNCc1ccccc1-c1csc([C@@H](C)Nc2nc(C)nc3cc(OC)c(OC)cc23)c1
Ribosomal protein S6 kinase alpha-1, C-terminal kinase domain (RPS6KA1, Homo sapiens, UniProt Q15418) — remaining binding: 100%.
The remaining binding was 91% (MAP4K2 (Homo sapiens, UniProt Q12851)).
The remaining binding was 63% (EGFR (Homo sapiens, UniProt P00533, G719C)).
DYRK2 (Homo sapiens, UniProt Q92630) — remaining binding: 92%.
DAPK3 (Homo sapiens, UniProt O43293) — remaining binding: 100%.
The remaining binding was 100% (PIM2 (Homo sapiens, UniProt Q9P1W9)).
For MAP3K4 (Homo sapiens, UniProt Q9Y6R4): remaining binding read 73%.
It gave 100% for remaining binding (PTK2B (Homo sapiens, UniProt Q14289)).
It gave 95% for remaining binding (PIK3CA (Homo sapiens, UniProt P42336, H1047L)).
For PIK3CA (Homo sapiens, UniProt P42336, M1043I): remaining binding read 56%.
MYLK2 (Homo sapiens, UniProt Q9H1R3) — remaining binding: 91%.
For NIM1K (Homo sapiens, UniProt Q8IY84): remaining binding read 93%.
ULK2 (Homo sapiens, UniProt Q8IYT8) — remaining binding: 100%.
For CDK17 (Homo sapiens, UniProt Q00537): remaining binding read 94%.
It gave 100% for remaining binding (KIT (Homo sapiens, UniProt P10721, V559D)).
FLT3 (Homo sapiens, UniProt P36888) — remaining binding: 97%.
For HIPK1 (Homo sapiens, UniProt Q86Z02): remaining binding read 78%.

Set 4 — cell line: mouse MPNST tumor cells; method: high-content immunofluorescence imaging; refers to: nuclear SOX9; concentration: 10 µM; time: 12 h; setting: mean of 2 replicates; reference: DMSO control; direction: higher = more nuclear SOX9
For CC(C)(C)c1cc(C(=O)C(C#N)=NNc2cccc(Cl)c2)no1, “nuclear SOX9 intensity” read 116 % of DMSO.
Under “nuclear SOX9 intensity”, CC1(C)C(N)=Nc2cc(OCCCN3Cc4ccc(OCCc5cn(CC(=O)N6CCC(CCN7CCCC7)CC6)nn5)cc4C3)c(OCC3CC3)cc21 is recorded as 123 % of DMSO.
Under “nuclear SOX9 intensity”, COc1cc(C(=O)N(CCC2CCCN2C)C/C(C)=C/c2ccccc2F)cc(OC)c1OC (centres unmarked) is recorded as 102 % of DMSO.

Other studies, line by line
With NC(=O)CCN(Cc1ccccc1)C(=O)c1ccccc1OCc1ccccc1 the remaining compound was 1.82% (human, microsomes or S9; 2 µM, 0.5 h).
c1ccc(Oc2ccc(Nc3c4c(nc5ccccc35)CCC4)cc2)cc1 has a cytotoxicity of 2% and 10% (PMA-differentiated THP-1 macrophages; 0.008 µM, 64 h).

For quick reference, copied from above (set 1):
`2'F-ANA at 1 2 5 7 9 12 13 14 15` — result for “mean fluorescence intensity”: 44.3 a.u.
`2'F-ANA at 3 4 6 7 8 9 12 15` — result for “mean fluorescence intensity”: 879 a.u.
Under “mean fluorescence intensity”, `2'F-ANA at 1 2 3 4 5 7 9 10 12 14` is recorded as 46.9 a.u.
For `2'F-ANA at 2 3 5 6 7 8 9 11 12 13 14`, “mean fluorescence intensity” read 52.6 a.u.
`2'F-ANA at 3 5 6 8 10 11 12` — result for “mean fluorescence intensity”: 60.2 a.u.
